{"data": "Results of several laboratories", "cell line": "RAW264.7", "note": "Protocols differ between the studies behind these lines. Numbers after ± are the reported error."}
{"Compound": "C[C@H]1[C@H](C)CC[C@]2(C(=O)O)CC[C@]3(C)C(=CC[C@@H]4[C@@]5(C)CC[C@H](O[C@@H]6O[C@@H](C)[C@H](O[C@@H]7O[C@@H](C)[C@H](O)[C@@H](O)[C@H]7O)[C@@H](O[C@@H]7O[C@@H](C)[C@H](O)[C@@H](O)[C@H]7O)[C@H]6O)C(C)(C)[C@@H]5CC[C@]43C)[C@H]12", "test": "LPS-induced NO production, inhibitor, Griess reaction", "conditions": "24 h, added: 100 ng/mL LPS", "quantity": "EC50", "result": "9.8 ± 0.3 µM"}
{"Compound": "CCOP(=O)(OCC)OCCCCOC(=O)C(C)c1ccc(CC(C)C)cc1 (stereo not shown)", "test": "western blot", "conditions": "130 µM, 12 h, added: LPS 100 ng/mL", "quantity": "COX-2 protein level", "result": "inhibited"}
{"Compound": "CCOC(=O)c1nc2cc(Cl)c(Cl)cc2nc1N1CCN(C(=O)Nc2ccc(N3CCNCC3)cc2)CC1", "conditions": "5 µM, added: LPS", "quantity": "glucose consumption", "result": "decreased"}
{"Compound": "Oc1ccc(-c2cc(-c3ccc(OCCN4CCCCC4)cc3)n(-c3ccc(O)cc3)n2)cc1", "test": "cytotoxicity, Alamar blue", "quantity": "EC50", "result": "12.3 ± 3.7 µM"}
{"Compound": "CC(=O)C1=C(C)NC(SCC(=O)c2ccccc2)=C(C#N)C1c1sccc1C (stereo not shown)", "test": "RNA-seq", "conditions": "10 µM, overnight, added: LPS 20 ng/mL", "quantity": "number of repressed genes", "result": 143}
{"Compound": "CC(=O)O[C@@H]1CC[C@@]2(C)C(CC[C@]3(C)C2C(=O)C=C2C4[C@@H](C)[C@H](C)CC[C@]4(C)CC[C@]23C)[C@@]1(C)C(=O)N/N=C\\C=Cc1ccccc1 (stereo partly shown)", "test": "NO release, inhibitor, Griess", "conditions": "10 µM, 24 h, LPS-stimulated", "quantity": "inhibition", "result": "84.3%"}
{"Compound": "Cc1ccc(CN2C(=O)/C(=N\\c3ccc(Cl)cc3Br)c3ccccc32)cc1", "conditions": "1.5 µM, added: LPS", "quantity": "CD86-positive cells", "result": "88.9%"}
{"Compound": "C[C@H]1[C@H](C)CC[C@]2(C(=O)O)CC[C@]3(C)C(=CC[C@@H]4[C@@]5(C)CC[C@H](O[C@@H]6O[C@@H](C)[C@H](O[C@@H]7O[C@@H](C)[C@H](O)[C@@H](O)[C@H]7O)[C@@H](O[C@@H]7O[C@@H](C)[C@H](O)[C@@H](O)[C@H]7O)[C@H]6O[C@@H]6O[C@@H](C)[C@H](O)[C@@H](O)[C@H]6O)C(C)(C)[C@@H]5CC[C@]43C)[C@H]12", "test": "LPS-induced NO production, inhibitor, Griess reaction", "conditions": "24 h, added: 100 ng/mL LPS", "quantity": "EC50", "result": "11 ± 2 µM"}
{"Compound": "CC(=O)O[C@@H]1CC[C@@]2(C)C(CC[C@]3(C)C2C(=O)C=C2C4[C@@H](C)[C@H](C)CC[C@]4(C)CC[C@]23C)[C@@]1(C)C(=O)Oc1cc(C)ccc1C(C)C (stereo partly shown)", "test": "NO release, inhibitor, Griess", "conditions": "10 µM, 24 h, LPS-stimulated", "quantity": "inhibition", "result": "82.1%"}
{"Compound": "COc1cccc(/C=C/C(=O)c2ccc(C)o2)c1OC", "test": "IL-6 release, inhibitor, ELISA", "conditions": "10 µM, LPS-stimulated", "quantity": "inhibition", "result": "73 to 89%"}
{"Compound": "C=CCc1ccc(OC(=O)CSc2nnc([C@]3(C)C4CC[C@]5(C)C(C(=O)C=C6C7[C@@H](C)[C@H](C)CC[C@]7(C)CC[C@]65C)[C@@]4(C)CC[C@H]3OC(C)=O)o2)c(OC)c1 (stereo partly shown)", "test": "NO release, inhibitor, Griess", "conditions": "10 µM, 24 h, LPS-stimulated", "quantity": "inhibition", "result": "76.2%"}
{"Compound": "CCOC(=O)c1csc2nc(-c3cccc(NC(=O)c4cc5cc(NC(=O)C(C)Cl)ccc5n4Cc4ccc(C(F)(F)F)cc4)c3)cn12 (stereo not shown)", "conditions": "10 µM, added: LPS", "scale": "relative to: control", "quantity": "intracellular Fe2+ level", "result": "increased"}
{"Compound": "C/C=C(/NC(=O)CCCCCCC)C(=O)N/C(=C/C)C(=O)N[C@H](CC(C)C)C(=O)N[C@@H](CC(C)C)C(=O)Nc1ccc(C(=O)N[C@H](C(=O)O)[C@@H](C)O)cc1", "test": "NO release, inhibitor, Griess", "conditions": "10 µM, 24 h, LPS-stimulated", "quantity": "inhibition", "result": "44.6%"}
{"Compound": "CC(=O)O[C@@H]1CC[C@@]2(C)C(CC[C@]3(C)C2C(=O)C=C2C4[C@@H](C)[C@H](C)CC[C@]4(C)CC[C@]23C)[C@@]1(C)C(=O)N/N=C1/C(=O)Nc2ccccc21 (stereo partly shown)", "test": "NO release, inhibitor, Griess", "conditions": "10 µM, 24 h, LPS-stimulated", "quantity": "inhibition", "result": "91%"}
{"Compound": "Cc1ccc(S(=O)(=O)Nc2ccc(O)c3ccccc23)c(C)c1", "conditions": "10 µM, 24 h, added: LPS 1 µg/mL", "quantity": "IL-1β secretion inhibition", "result": "86%"}
{"Compound": "CC(=O)O[C@@H]1CC[C@@]2(C)C(CC[C@]3(C)C2C(=O)C=C2C4[C@@H](C)[C@H](C)CC[C@]4(C)CC[C@]23C)[C@@]1(C)C(=O)OCC(=O)Oc1cc(C)ccc1C(C)C (stereo partly shown)", "test": "NO release, inhibitor, Griess", "conditions": "10 µM, 24 h, LPS-stimulated", "quantity": "inhibition", "result": "89.7%"}
{"Compound": "CCOC(=O)c1csc2nc(-c3cccc(NC(=O)c4cc5cc(NC(=O)c6ccco6)ccc5n4Cc4ccc(C(F)(F)F)cc4)c3)cn12", "conditions": "10 µM, added: LPS", "scale": "relative to: control", "quantity": "intracellular ROS level", "result": "increased"}
{"Compound": "COc1cccc(/C=N\\NC(=O)[C@]2(C)C3CC[C@]4(C)C(C(=O)C=C5C6[C@@H](C)[C@H](C)CC[C@]6(C)CC[C@]54C)[C@@]3(C)CC[C@H]2OC(C)=O)c1 (stereo partly shown)", "test": "NO release, inhibitor, Griess", "conditions": "10 µM, 24 h, LPS-stimulated", "quantity": "inhibition", "result": "64.6%"}
{"Compound": "CC[C@H](C)[C@H](NC(=O)[C@H](CCCCN)NC(=O)[C@H](CC(N)=O)NC(=O)CNC(=O)[C@@H](NC(=O)[C@H](C)NC(=O)[C@H](CCCNC(=N)N)NC(=O)[C@H](CC(C)C)NC(=O)[C@H](CCCCN)NC(=O)[C@H](CCCCN)NC(=O)[C@H](CCCCN)NC(=O)[C@H](C)NC(=O)[C@H](CCCCN)NC(=O)[C@@H]1CSSC[C@H](NC(=O)[C@H](CCCNC(=N)N)NC(=O)CN)C(=O)N[C@@H](CC(N)=O)C(=O)N[C@@H](CC(C)C)C(=O)N[C@@H](CC(C)C)C(=O)N1)C(C)C)C(=O)N[C@@H](CCCCN)C(=O)N[C@@H](CCC(=O)O)C(=O)N[C@H](C(=O)N[C@@H](CCCCN)C(=O)N[C@@H](CC(N)=O)C(=O)N[C@H](C(=O)N[C@H](C(=O)N[C@@H](Cc1ccccc1)C(=O)N[C@@H](CC(N)=O)C(=O)N[C@@H](CCCNC(=N)N)C(=O)O)C(C)C)C(C)C)[C@@H](C)CC", "conditions": "20 µM, 24 h, added: LPS 2 h before, washed", "quantity": "IL-6 reduction", "result": "48.9%"}
